Published values pooled from the literature.
A part holds a random share of what one study measured. Substitutions count along the parent as printed.

Set 1 — target: CCNA2, cyclin fold, Cln2 fusion (human); technique: yeast growth competition, sequencing; matrix: yeast; setting: strong parent motif; baseline: not given; reading: higher = stronger binding
Starting sequence: CDC6 docking peptide (human); TLKGRRLVFDNQL; partner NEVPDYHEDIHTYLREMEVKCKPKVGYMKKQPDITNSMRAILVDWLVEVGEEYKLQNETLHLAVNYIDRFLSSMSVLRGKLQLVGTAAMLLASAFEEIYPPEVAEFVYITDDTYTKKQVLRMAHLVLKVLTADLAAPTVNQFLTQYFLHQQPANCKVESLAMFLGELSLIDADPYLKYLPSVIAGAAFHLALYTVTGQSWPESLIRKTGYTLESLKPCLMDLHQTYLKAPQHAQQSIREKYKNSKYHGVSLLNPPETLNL
Under “normalised enrichment score”, `TLKGRRLVFDIQL [N11I]` is recorded as 1.98.
Under “normalised enrichment score”, `TLKGRRYVFDNQL [L7Y]` is recorded as 1.77.
`TLKGLRLVFDNQL [R5L]` — result for “normalised enrichment score”: 1.05.
`TLKGRRLVFDPQL [N11P]`: “normalised enrichment score” 2.58.
Under “normalised enrichment score”, `TEKGRRLVFDNQL [L2E]` is recorded as 0.969.
`TLKGRTLVFDNQL [R6T]`: “normalised enrichment score” 0.94.
`TLKGRRLAFDNQL [V8A]` — result for “normalised enrichment score”: 0.788.
`TLKGRRLVVDNQL [F9V]` — result for “normalised enrichment score”: -0.462.
For `TLKGTRLVFDNQL [R5T]`, “normalised enrichment score” read 1.58.
Under “normalised enrichment score”, `TLKGRRSVFDNQL [L7S]` is recorded as 0.72.

Set 2 — technique: protein-binding microarray; molecule type: double-stranded DNA, one strand shown; matrix: in vitro; tested at: 940 nM top; setting: 60-bp whole probe; added: salmon DNA 0.4 mg/ml; baseline: random background probes; reading: higher = stronger binding; shared flanks, not repeated: GCCTAGCAC … GTCTTGATTCGCTTGACGCTGCTG
Target: Interferon regulatory factor 5, full length, phosphomimetic (IRF5, Homo sapiens, UniProt Q13568-2, residues 1-514, S451D/S453D/S456D/S462D)
`GATGGCAGTGGAAATTTTACGTGCTAG`: “fitted relative affinity” -0.647 z-score.
`TTAGGTTTCCTTTTTCTTTAGTGCTAG`: “fitted relative affinity” 2.58 z-score.
`TTAGATTTCAGTTTCCATTAGTGCTAG` — result for “fitted relative affinity”: 1.99 z-score.
`ATAGATTTCGGGACTGGATTAGTGCTA` — result for “fitted relative affinity”: 0.326 z-score.
`TTAGGTATCGACTATCGGCTAGTGCTA`: “fitted relative affinity” 5.47 z-score.
`GACGGTAGCGACTATCGGGACGTGCTA`: “fitted relative affinity” 0.0217 z-score.
Under “fitted relative affinity”, `TTCGATATCAGACTGGATTAGTGCTAG` is recorded as -0.273 z-score.
For `CTCACCGCTGGAGTTCTGCGGTGCTAG`, “fitted relative affinity” read -0.866 z-score.

Set 3 — technique: protein-binding microarray; molecule type: double-stranded DNA, one strand shown; matrix: in vitro; tested at: not given; reading: higher = stronger binding
Target: Microphthalmia-associated transcription factor, full length (MITF, Homo sapiens, UniProt O75030-10, residues 1-413)
Setting: k-mer, scored over probes, only values ≥0.25
The E-score of `CTTGTGA` is reported as 0.426.
With `CGTGACC` the E-score was 0.474.
`CGTGTTC` gave an E-score of 0.254.
`CTCATGA` has an E-score of 0.39.
With `TCACACA` the E-score was 0.254.
The E-score of `CACGAGA` is reported as 0.461.
For `ACTCGTG`, the E-score was 0.459.
For `CGACACG`, the E-score was 0.26.

Other studies, line by line
`PhoQ, residues 284 288 289 292 302 303 TAVSDG` has a fold induction of 1.28 (PhoP, residues 12 14 15 18 19 YHFSH (Escherichia coli, UniProt P23836); Sort-seq, item: YFP reporter; E. coli; PhoQ-PhoP variant library, added: 10 µM Mg2+; baseline: high Mg2+ state, higher = stronger signaling).

For quick reference, copied from above (set 1):
`TLKGRRLAFDNQL [V8A]` — result for “normalised enrichment score”: 0.788.
`TLKGRRLVVDNQL [F9V]` — result for “normalised enrichment score”: -0.462.
